Measured values from different studies.
Numbered parts are unrelated; each lists some results of a single study. Positions count from the first letter of the parent shown.

Study 1 — technique: DHFR PCA, deep sequencing; matrix: yeast; together with: (+)-ABA 1.4 µM; relative to: wild-type fitted maximum; reading: higher = stronger binding
Target: ABI1, truncated, D143A, DHFR fusion (Arabidopsis thaliana)
Setting: methotrexate growth selection, single substitutions
Parent: PYL1, truncated, DHFR fusion (Arabidopsis thaliana); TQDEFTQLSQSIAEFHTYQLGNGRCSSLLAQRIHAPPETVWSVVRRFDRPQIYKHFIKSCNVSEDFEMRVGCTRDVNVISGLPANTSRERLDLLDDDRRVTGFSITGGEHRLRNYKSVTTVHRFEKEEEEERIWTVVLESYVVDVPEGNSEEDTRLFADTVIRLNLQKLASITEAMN
`N149Y` — result for “relative binding score”: 7.89%.
`I33S`: “relative binding score” 6.56%.
Under “relative binding score”, `S117G` is recorded as 3%.
`K168C`: “relative binding score” 52.9%.
`R163F`: “relative binding score” -49.5%.
`Y18P` — result for “relative binding score”: 40.1%.
Under “relative binding score”, `V121K` is recorded as -4.08%.
Under “relative binding score”, `L20Y` is recorded as 43.7%.

Study 2 — technique: universal PBM; form: double-stranded DNA, one strand shown; matrix: in vitro; tested at: not given; reading: higher = stronger binding
Target: Sal-like protein 4, full length isoform B (SALL4, Homo sapiens, UniProt Q9UJQ4-2, residues 1-616)
Setting: 8-mer, flanks averaged, mean of replicates
The E-score of `TAGCGTCA` is reported as 0.0106.
With `ATGTCGGC` the E-score was -0.208.
For `GAGCAGCA`, the E-score was -0.0873.
For `CAGCACAC`, the E-score was -0.186.
`AAACACTT` gave an E-score of 0.0492.
With `GTGGTTAA` the E-score was 0.0522.
For `CTGCTTGC`, the E-score was -0.0416.
For `AGCAGCTC`, the E-score was -0.29.

Mixed results
P1: viral docking peptide; KGVKRKLFAEDSS; partner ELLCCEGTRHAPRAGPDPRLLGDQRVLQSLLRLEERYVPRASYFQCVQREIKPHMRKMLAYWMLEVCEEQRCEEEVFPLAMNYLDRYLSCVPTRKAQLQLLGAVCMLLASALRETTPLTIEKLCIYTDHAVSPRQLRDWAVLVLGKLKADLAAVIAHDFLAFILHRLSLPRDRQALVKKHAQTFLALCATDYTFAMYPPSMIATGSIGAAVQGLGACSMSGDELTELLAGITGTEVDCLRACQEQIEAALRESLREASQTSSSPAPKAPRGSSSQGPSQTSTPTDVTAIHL
For `P1 G2N`, “normalised enrichment score” read 0.131 (CCND3, cyclin fold, Cln2 fusion (human); yeast growth competition, sequencing; yeast; weak parent motif; relative to: not given, higher = stronger binding).
Under binding, `TFVPIAWAAAY` is recorded as “inactive” (HLA class I histocompatibility antigen, A alpha chain, allele A*25:01 (Homo sapiens, UniProt P04439); peptide-MHC binding; peptide; concentration not given).

Some of these lines once more (study 1):
`N149Y` — result for “relative binding score”: 7.89%.
Under “relative binding score”, `S117G` is recorded as 3%.
Under “relative binding score”, `L20Y` is recorded as 43.7%.
